Published values collected from several papers.
Numbered parts are unrelated; each lists some results of a single study. Changes are numbered by the printed parent chain.

Set 1 — method: RNA Bind-n-Seq; form: RNA; medium: in vitro; concentration: 1 µM; setting: whole 134-nt RNA, ends assumed; together with: 150 mM KCl; reference: input library; direction: higher = stronger binding
Target: Ras GTPase-activating protein-binding protein 1, RRM domain (G3BP1, Homo sapiens, UniProt Q13283)
Chain of UniProt Q13283 (whole entry, looked up): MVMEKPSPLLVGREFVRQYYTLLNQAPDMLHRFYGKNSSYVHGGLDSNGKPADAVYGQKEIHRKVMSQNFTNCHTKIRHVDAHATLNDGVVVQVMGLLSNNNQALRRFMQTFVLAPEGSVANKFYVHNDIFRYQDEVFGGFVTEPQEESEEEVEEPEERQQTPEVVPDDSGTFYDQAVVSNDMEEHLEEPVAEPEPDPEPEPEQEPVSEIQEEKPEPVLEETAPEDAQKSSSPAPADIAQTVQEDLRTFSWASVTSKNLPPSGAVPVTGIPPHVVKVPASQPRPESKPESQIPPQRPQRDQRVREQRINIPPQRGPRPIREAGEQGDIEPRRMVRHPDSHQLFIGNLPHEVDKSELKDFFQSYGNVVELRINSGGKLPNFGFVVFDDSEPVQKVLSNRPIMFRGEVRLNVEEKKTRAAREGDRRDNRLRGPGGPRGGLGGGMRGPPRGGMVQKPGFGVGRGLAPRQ
All sequences stand within: GGGAGUUCUACAGUCCGACGAUC … UGGAAUUCUCGGGUGUCAAGG
| Oligonucleotide | log2 enrichment |
| --- | --- |
| UGCUGCUUUCUGCCUUGGUGGCAGGCAGAGAACUGUCUCGUACUAGAAUUCAAGGAGGAAAGAAGAAGAAAUAAAAGAAGCUGCUCCAUU | -0.0395 |
| ACCAUGCAGGUGGGCAUCUUUGGGAAGUGGGGCAAGGGGGGGAUAGGGAGGGGGGUAACACUUUGCGAACAGGUGGUCCCAGGUCGUUUC | 1.01 |
| CCUGUGCUACACAUCGUAUGUACCGAAUCGGGCCCCCCGGGGCCCCCCGGGGCCCCCCGGAAAGUAUUAUGUUACGCCGUUCGGAUCUGC | -0.653 |
| UGGGAGGUGGAUUUUGUUUAUUUUUUUAGCUCAUUUCGAGGGGUGGGAAUUUUUUUUUAAUAUGUGUCAUGAAUAAAGUUGUUUUUGAAA | 1.88 |
| CUCAAGUCCUGUGCUACACAUCGUAUGUACCGAAUCGGAAAAAGGAAAGGUGGAAAGUAUUAUGUUACGCCGUUCGGAUCUGCACUUCCA | -0.193 |
| UGUGAGAUUAAACUUGCCCCCAAACGAUCUCGUUUGGAGACUAGAGCUGGAGAAGAAGAUGAAGGAGAAGAGGAUUCUGAUUCUGAUUAU | -0.203 |
| CUGUGCUACACAUCGUAUGUACCGAAUCGGGGAAAAAGGGGUUUUUUUGGGGUUUUUGGGGAAAGUAUUAUGUUACGCCGUUCGGAUCUG | 1.06 |
| UCAAGUCCUGUGCUACACAUCGUAUGUACCGAAUCGGGUUUGGGGUUUGGUUUGGAAAGUAUUAUGUUACGCCGUUCGGAUCUGCACUUC | -0.444 |
| UGGCCCUGGUGGCAUGCGGGGAGGAAGAGGUGGCGUCAUGGAUCGUGGUGGUCCCGGUGGAAUGUUCAGAGGUGGCCGUGGUGGAGACAG | 1.11 |

Set 2 — method: protein binding microarray; form: double-stranded DNA, one strand shown; medium: in vitro; concentration: not given; reference: not given; direction: higher = stronger binding
Target: Histone acetyltransferase KAT6A, both winged helices, GST fusion (KAT6A, Homo sapiens, UniProt Q92794, residues 1-181)
Setting: 8-mer, flanks averaged, mean of 2 arrays, mostly near background
Target sequence (chain): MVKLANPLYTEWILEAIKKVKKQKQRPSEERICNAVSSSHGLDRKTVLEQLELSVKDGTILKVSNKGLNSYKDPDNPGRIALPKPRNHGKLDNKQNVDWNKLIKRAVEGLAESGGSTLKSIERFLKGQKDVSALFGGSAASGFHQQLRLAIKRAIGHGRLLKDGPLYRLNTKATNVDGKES
| Oligonucleotide | E-score |
| --- | --- |
| AGACCGGC | 0.208 |
| CCCAGTAA | -0.109 |
| ACCGGTGA | 0.217 |
| AACGTGGT | -0.0946 |
| AGCTCGGC | 0.294 |
| GCGTCGAA | 0.24 |
| ATTGAGTG | -0.0975 |
| AAAACATT | -0.0443 |
| CTAACCTC | -0.183 |
| CAGAGTAA | -0.0144 |
| CGGTCATA | 0.125 |
| GCCGTGAC | 0.245 |

Set 3 — target: CCNE1, cyclin fold, Cln2 fusion (human); method: yeast growth competition, sequencing; medium: yeast; setting: strong parent motif; reference: not given; direction: higher = stronger binding
Parent: PKN2 docking peptide (human); VSAVRKLDFSDTM
| Substitution | normalised enrichment score |
| --- | --- |
| S2A | 5.22 |
| T12H | 5.57 |
| K6Q | 5.09 |
| K6A | 3.55 |
| K6H | 2.84 |
| R5G | -0.0551 |
| V4F | 4.27 |
| L7F | -0.274 |

Single results of other studies
| Substance | target | test | system | setting | scale | quantity | result |
| --- | --- | --- | --- | --- | --- | --- | --- |
| PhoQ, residues 284 288 289 292 302 303 ALASRC | PhoP, residues 12 14 15 18 19 NHFIF (Escherichia coli, UniProt P23836) | Sort-seq, refers to: YFP reporter | E. coli | PhoQ-PhoP variant library, together with: 10 µM Mg2+ | reference: high Mg2+ state, higher = stronger signaling | fold induction | 13 |

A few entries again (set 2):
| Oligonucleotide | E-score |
| --- | --- |
| AGACCGGC | 0.208 |
| CCCAGTAA | -0.109 |
| ACCGGTGA | 0.217 |
| AACGTGGT | -0.0946 |
| AGCTCGGC | 0.294 |
